# Measurements of several laboratories.
# Each numbered part is a random draw from the data of one study; scales do not carry over between parts. Positions count from the first letter of the parent shown.

# Series 1 — target: inorganic phosphate, free oxyanion; technique: microfluidic competitive inhibition; sample: in vitro, cell-free expressed; concentration: not given; reading: lower = stronger binding
# Notes: derived from inhibition constants, unchanged parent 615000 nM
# Parent: PafA, mature enzyme, eGFP fusion (Elizabethkingia meningoseptica, UniProt Q9KJX5); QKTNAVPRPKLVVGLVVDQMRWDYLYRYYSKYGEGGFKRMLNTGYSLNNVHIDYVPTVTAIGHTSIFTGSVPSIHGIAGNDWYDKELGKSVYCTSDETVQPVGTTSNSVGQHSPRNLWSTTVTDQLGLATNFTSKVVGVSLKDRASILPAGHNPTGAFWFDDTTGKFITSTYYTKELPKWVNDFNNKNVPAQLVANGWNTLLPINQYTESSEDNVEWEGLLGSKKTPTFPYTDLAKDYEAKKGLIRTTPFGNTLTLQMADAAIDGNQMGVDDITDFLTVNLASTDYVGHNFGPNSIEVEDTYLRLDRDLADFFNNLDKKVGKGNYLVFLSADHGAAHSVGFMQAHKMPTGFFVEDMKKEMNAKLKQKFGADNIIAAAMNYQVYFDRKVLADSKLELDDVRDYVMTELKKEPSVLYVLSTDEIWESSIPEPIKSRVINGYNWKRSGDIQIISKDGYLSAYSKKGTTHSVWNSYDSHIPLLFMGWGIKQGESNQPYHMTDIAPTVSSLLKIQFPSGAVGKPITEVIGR
Variant,phosphate dissociation constant
P56V,254 µM
E239V,577 µM
P178G,545 µM
Q343V,641 µM
S457V,552 µM
G79A,865 µM
G62A,20.8 µM
F291G,405 µM

# Series 2 — target: CCNB1, cyclin fold, Cln2 fusion (human); technique: yeast growth competition, sequencing; sample: yeast; notes: strong parent motif; baseline: not given; reading: higher = stronger binding
# Parent: viral docking peptide; YKVKRRLVFGADD; partner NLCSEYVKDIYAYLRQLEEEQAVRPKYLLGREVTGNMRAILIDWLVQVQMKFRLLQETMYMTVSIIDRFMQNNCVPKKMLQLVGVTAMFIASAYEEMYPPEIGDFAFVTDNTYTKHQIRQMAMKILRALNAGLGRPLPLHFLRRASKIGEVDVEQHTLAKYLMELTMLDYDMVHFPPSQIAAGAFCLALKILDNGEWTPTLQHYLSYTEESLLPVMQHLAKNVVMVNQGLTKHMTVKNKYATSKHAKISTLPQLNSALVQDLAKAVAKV
Variant,normalised enrichment score
YKVKRRLVTGADD [F9T],0.417
YKVKRRLVFGARD [D12R],0.93
YAVKRRLVFGADD [K2A],3.82
YKVKRRLFFGADD [V8F],3.62
YKVKARAVFGADD [R5A L7A],0.629
YKVKRRLVFGAAD [D12A],2.2
YKVKRSLVFGADD [R6S],1.01
YCVKRRLVFGADD [K2C],4.54

# Series 3 — effect on: binding; technique: phage display NGS; molecule type: peptide; notes: panning round 2; baseline: input library
# Target: UDP-N-acetylglucosamine--peptide N-acetylglucosaminyltransferase 110 kDa subunit (OGT, Homo sapiens, UniProt O15294)
# Chain of UniProt O15294 (whole entry, looked up): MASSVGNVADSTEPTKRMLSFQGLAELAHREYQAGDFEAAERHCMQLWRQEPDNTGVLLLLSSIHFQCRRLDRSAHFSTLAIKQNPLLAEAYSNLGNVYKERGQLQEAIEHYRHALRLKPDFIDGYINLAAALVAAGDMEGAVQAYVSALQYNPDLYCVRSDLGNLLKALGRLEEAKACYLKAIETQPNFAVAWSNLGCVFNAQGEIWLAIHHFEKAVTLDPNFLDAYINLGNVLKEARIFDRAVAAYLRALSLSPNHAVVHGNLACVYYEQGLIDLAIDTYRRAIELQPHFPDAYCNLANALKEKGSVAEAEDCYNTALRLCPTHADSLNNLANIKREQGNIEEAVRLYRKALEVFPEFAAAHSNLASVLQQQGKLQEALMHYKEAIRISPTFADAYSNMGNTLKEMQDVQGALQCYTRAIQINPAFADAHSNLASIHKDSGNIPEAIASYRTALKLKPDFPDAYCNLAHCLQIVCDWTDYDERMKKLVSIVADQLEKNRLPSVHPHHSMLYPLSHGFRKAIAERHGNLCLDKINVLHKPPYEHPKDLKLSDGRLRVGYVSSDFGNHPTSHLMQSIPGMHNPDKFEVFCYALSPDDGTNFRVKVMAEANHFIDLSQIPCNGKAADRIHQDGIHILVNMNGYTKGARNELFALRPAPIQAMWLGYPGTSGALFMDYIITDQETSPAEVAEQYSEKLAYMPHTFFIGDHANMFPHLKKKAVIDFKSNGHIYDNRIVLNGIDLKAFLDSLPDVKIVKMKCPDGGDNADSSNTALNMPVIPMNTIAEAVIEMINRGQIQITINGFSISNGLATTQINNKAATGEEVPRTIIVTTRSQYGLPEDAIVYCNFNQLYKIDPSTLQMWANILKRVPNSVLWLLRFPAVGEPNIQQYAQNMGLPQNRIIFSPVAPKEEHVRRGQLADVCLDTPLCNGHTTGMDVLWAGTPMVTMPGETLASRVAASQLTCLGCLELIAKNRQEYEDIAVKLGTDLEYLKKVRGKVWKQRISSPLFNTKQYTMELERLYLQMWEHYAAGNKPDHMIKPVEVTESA
Molecule,minimum log2 enrichment ratio
TKFAPQYILEYSKVY,2.53
DGQFKPVYMIDYGV,2.97
MWFPPVYSIQYDLI,3.47
HVPEGHHYLGHVHFL,2.16

# Further values, each from its own experiment
SMILES,test,test system,setting,endpoint,value
N=C(N)NN=C1C=CC(=NNC(N)=S)C=C1,"dsDNA unwinding, PicoGreen fluorescence",annealed dsDNA substrate,20 µM,effect,11%
